Results from different studies.
Each line is one published result; not all experiments were run side by side.
Target: SRSF protein kinase 1 (SRPK1, Homo sapiens, UniProt Q96SB4)

Structure (SMILES) | assay | conditions | how to read | endpoint | result
C=CC(=O)N1CCc2ccc(-n3c(=O)ccc4cnc5ccc(-c6cnn(C)c6)cc5c43)cc21 | KINOMEscan | 1 µM | relative to: DMSO control | remaining binding | 100%
CN(C(=O)N(C)c1ccc(C#N)cc1)c1ccccc1 | enzyme activity, inhibitor, FRET | 10 µM |  | inhibition | 0.7%
O=C=[N][Ru-4]123([n]4c5ccc(O)cc5c5c6c(c7cc(F)c[n+]1c7c54)C(=O)NC6=O)[S+]1CC[S+]2CC[S+]3CC1 (stereo not drawn) | enzyme activity | 100 nM, human enzyme, with: 10 µM ATP | relative to: untreated | remaining activity | 35%
Cc1ccc(C)c(-c2ccc3nc(NC(=O)C4CCCCC4)nn3c2)c1 | enzyme activity, Dundee kinase panel | 10 µM |  | remaining activity | 65%
N#Cc1ccc(NC(=O)Nc2ccccc2O)cc1 | enzyme activity, inhibitor, FRET | 10 µM |  | inhibition | 22.2%
O=C(Cc1ccc(OCc2ccccc2)cc1)NC1(C(=O)O)CCN(C(=O)c2ccc(-c3cccc(Cl)c3)cc2)CC1 | enzyme activity, inhibitor | 10 µM |  | activity vs control | 99%
Cc1cccc(O[C@H]2CCC[C@@H](C(C)CNCc3ccncc3)C2)c1 (relative stereo) | enzyme activity, inhibitor | 1 µM |  | inhibition | 3%
COc1cc(Nc2nc(C)cc(-c3cnn4nc(OC)ccc34)n2)cc(C(F)(F)F)c1 | binding, competition with immobilised ligand | 1 µM |  | remaining binding | 96%
Nc1ncc(-c2cc(-c3cnn(CC(F)(F)F)c3)ncc2F)nc1C(=O)NC1CNCC(F)C1 (stereo not drawn) | enzyme activity | 1 µM | relative to: DMSO control | remaining activity | 97%
Cc1cnc2nc1Nc1cccc(c1)COC/C=C/COCc1cc(ccc1OCCN1CCOCC1)N2 | binding, competition with immobilised ligand | 0.1 µM |  | remaining binding | 91%
CN1CC[C@@H](COc2cnc(C#N)cc2-c2ccn3nc(NC(=O)C4CC4)cc3c2)C1 | enzyme activity, inhibitor | 1 µM |  | inhibition | 21%
COc1c(Cl)cccc1Nc1c(-c2ccncc2C#C[C@@]2(C)CCCN2C(=O)/C=C/CN(C)C)[nH]c2c1C(=O)NCC2 | binding, competition with immobilised ligand | 3 µM |  | remaining binding | 87%
CN1CCN(Cc2ccc(-c3ccc(CO[C@H]4CCC[C@@H]4NC(=O)c4cc(-c5cnn(C)c5)cnc4N)cc3)cc2)CC1 | enzyme activity, inhibitor | 0.1 µM |  | inhibition | 1%
O=C(Nc1cccc(C(F)(F)F)c1)Nc1ccccc1O | enzyme activity, inhibitor, FRET | 10 µM |  | inhibition | 11.6%
Cc1nc2c(F)cc(-c3nc(Nc4ccc(CNC(=O)CCCCCCC(=O)NO)cc4)ncc3F)cc2n1C(C)C | enzyme activity, inhibitor | 1 µM |  | inhibition | 45%

Repeated from above:
Structure (SMILES) | assay | conditions | how to read | endpoint | result
O=C(Cc1ccc(OCc2ccccc2)cc1)NC1(C(=O)O)CCN(C(=O)c2ccc(-c3cccc(Cl)c3)cc2)CC1 | enzyme activity, inhibitor | 10 µM |  | activity vs control | 99%
CN(C(=O)N(C)c1ccc(C#N)cc1)c1ccccc1 | enzyme activity, inhibitor, FRET | 10 µM |  | inhibition | 0.7%
